Measured values gathered from unrelated publications.
Protocols differ between the studies behind these lines.
Mode: inhibitor
AAK1: AP2-associated protein kinase 1 (AAK1, Homo sapiens, UniProt Q2M2I8)
Chain of UniProt Q2M2I8 (whole entry, looked up): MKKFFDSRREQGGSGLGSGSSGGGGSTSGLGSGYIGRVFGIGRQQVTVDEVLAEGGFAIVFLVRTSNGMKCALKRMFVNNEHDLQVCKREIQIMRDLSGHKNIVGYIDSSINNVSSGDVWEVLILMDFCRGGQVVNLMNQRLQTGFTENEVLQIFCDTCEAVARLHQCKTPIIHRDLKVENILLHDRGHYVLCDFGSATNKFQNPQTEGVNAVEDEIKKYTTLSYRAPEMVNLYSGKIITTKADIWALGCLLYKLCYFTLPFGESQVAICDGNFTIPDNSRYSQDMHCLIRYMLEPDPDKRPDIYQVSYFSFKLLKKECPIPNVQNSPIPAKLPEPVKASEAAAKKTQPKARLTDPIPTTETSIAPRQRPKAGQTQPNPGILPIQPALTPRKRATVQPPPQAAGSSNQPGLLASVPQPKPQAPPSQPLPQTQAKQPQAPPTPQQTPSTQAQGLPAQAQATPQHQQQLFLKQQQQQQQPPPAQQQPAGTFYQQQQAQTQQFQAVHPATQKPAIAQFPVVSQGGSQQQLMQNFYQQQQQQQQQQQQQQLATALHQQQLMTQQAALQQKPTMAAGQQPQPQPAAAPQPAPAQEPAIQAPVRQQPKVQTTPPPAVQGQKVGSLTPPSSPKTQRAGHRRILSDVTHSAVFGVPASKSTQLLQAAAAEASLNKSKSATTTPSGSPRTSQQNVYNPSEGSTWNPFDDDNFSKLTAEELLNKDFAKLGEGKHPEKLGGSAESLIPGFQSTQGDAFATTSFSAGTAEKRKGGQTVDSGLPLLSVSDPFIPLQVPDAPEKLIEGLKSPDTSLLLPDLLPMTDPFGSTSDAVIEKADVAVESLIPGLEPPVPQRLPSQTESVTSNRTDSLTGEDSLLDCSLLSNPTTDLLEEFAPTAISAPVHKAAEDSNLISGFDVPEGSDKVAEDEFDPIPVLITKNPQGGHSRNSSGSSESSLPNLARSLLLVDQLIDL
MAPK3: Mitogen-activated protein kinase 3 (MAPK3, Homo sapiens, UniProt P27361)
Chain of UniProt P27361 (whole entry, looked up): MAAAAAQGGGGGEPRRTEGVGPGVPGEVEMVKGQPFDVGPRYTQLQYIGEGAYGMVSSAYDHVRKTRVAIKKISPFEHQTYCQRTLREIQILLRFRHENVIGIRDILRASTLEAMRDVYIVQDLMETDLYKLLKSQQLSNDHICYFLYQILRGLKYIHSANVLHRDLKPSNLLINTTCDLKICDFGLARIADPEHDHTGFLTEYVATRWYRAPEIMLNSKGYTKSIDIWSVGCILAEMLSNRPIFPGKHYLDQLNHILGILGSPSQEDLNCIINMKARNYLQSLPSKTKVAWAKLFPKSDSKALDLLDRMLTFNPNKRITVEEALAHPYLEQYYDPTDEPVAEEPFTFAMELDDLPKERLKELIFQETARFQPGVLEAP
MPO: Myeloperoxidase (MPO, Homo sapiens, UniProt P05164)
Chain of UniProt P05164 (whole entry, looked up): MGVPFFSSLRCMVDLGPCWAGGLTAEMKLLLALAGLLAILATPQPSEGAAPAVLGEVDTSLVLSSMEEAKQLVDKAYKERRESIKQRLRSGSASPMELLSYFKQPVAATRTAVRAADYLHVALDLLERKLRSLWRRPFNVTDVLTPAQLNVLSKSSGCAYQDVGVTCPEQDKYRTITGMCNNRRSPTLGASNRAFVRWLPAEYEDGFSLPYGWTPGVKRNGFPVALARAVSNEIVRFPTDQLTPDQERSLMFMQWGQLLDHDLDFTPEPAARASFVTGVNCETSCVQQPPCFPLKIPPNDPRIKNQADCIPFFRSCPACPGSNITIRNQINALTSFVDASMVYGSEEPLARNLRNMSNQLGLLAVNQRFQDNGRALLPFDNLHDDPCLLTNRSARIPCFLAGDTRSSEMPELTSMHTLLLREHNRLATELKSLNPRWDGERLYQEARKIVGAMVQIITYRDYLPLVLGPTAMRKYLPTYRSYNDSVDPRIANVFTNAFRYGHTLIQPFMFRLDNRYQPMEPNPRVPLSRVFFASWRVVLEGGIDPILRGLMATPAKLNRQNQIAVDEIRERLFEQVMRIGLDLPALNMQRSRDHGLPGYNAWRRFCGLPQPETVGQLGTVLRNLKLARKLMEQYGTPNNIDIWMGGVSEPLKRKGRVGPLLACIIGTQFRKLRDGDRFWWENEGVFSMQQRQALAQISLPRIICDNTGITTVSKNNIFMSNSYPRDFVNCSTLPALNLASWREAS
SLC2A1: Solute carrier family 2, facilitated glucose transporter member 1 (SLC2A1, Homo sapiens, UniProt P11166)
Chain of UniProt P11166 (whole entry, looked up): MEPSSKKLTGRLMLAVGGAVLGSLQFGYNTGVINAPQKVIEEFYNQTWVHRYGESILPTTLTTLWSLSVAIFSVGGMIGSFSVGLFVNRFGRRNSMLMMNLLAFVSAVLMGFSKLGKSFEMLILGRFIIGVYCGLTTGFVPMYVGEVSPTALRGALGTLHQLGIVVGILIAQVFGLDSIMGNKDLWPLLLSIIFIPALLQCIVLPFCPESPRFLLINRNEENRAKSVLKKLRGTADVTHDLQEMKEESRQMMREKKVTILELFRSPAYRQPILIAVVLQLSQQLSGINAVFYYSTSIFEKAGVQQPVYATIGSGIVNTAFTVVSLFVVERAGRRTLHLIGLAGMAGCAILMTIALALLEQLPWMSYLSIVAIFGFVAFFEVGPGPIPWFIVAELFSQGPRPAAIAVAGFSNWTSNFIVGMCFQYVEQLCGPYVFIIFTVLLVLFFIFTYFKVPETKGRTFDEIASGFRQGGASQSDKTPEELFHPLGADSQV
RET: Proto-oncogene tyrosine-protein kinase receptor Ret (RET, Homo sapiens, UniProt P07949)
Chain of UniProt P07949 (whole entry, looked up): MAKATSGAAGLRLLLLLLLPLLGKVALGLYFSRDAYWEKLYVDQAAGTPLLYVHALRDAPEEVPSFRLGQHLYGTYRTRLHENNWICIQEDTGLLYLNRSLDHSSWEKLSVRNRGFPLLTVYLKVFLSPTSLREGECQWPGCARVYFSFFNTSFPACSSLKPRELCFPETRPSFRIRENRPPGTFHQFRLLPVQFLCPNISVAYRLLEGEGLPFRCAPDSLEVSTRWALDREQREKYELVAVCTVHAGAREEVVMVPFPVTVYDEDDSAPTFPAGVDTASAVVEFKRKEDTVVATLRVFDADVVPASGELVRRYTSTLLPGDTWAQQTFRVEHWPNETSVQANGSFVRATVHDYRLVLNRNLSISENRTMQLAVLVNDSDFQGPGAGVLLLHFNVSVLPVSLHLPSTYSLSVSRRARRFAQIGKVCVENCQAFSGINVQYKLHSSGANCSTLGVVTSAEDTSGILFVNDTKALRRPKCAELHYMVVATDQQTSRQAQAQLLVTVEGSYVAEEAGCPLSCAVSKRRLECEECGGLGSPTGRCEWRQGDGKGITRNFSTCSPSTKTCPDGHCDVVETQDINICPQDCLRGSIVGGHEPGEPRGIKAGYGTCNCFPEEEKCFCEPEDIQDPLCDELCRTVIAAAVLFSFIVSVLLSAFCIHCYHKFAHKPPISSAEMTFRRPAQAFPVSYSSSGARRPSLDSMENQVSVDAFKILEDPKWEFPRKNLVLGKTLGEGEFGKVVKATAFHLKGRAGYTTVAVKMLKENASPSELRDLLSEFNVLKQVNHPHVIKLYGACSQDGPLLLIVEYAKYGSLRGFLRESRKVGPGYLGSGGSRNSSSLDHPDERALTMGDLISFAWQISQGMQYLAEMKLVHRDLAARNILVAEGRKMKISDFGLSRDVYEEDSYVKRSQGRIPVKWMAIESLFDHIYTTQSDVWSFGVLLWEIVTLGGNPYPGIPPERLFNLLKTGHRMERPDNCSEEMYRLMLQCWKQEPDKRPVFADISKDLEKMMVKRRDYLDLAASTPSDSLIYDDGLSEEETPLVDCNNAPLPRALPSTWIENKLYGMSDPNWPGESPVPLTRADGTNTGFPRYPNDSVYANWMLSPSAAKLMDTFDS
Chain of UniProt O14744 (whole entry, looked up): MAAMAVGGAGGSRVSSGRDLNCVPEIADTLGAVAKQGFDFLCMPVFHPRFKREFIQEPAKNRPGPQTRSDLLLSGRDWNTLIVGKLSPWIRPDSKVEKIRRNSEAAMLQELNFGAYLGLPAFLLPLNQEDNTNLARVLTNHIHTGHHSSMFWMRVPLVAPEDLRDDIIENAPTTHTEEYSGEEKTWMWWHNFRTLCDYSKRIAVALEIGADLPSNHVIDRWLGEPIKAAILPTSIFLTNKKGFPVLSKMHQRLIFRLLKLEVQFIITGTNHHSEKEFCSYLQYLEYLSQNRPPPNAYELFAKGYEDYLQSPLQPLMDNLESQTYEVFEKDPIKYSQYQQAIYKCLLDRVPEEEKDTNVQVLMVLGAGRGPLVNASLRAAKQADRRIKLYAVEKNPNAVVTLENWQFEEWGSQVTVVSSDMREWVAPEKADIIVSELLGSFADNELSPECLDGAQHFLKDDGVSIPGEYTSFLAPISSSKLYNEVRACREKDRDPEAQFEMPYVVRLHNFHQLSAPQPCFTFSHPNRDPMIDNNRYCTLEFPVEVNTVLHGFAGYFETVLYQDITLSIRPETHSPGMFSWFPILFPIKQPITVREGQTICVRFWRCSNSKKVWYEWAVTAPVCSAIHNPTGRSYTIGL
Chain of UniProt Q9BTU6 (whole entry, looked up): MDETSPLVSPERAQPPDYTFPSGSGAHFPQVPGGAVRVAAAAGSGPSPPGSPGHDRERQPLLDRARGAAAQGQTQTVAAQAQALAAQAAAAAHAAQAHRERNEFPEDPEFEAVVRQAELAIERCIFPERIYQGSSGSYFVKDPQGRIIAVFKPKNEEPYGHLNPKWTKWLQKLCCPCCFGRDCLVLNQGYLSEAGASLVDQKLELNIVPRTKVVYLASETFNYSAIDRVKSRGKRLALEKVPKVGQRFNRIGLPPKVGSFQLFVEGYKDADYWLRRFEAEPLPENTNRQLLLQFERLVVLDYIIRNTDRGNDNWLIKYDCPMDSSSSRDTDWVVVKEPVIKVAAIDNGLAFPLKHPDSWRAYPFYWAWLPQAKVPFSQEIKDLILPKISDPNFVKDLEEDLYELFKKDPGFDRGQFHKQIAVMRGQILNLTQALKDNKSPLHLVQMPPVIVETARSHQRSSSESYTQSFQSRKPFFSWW

Compound | target | assay | test system | conditions | remaining activity
Cc1nn(CC(F)(F)F)cc1Nc1ncc(Br)c(NCCCNC(=O)C2CCC2)n1 | AAK1 | enzyme activity, radiometric |  | 1 µM | 7%
CCCOc1ccc(OC)c(F)c1C(=O)c1ccc(C(=O)N[C@@H]2CNC[C@H]2NC(=O)c2ccc3[nH]ncc3c2)cc1 | 5'-AMP-activated protein kinase catalytic subunit alpha-2 (PRKAA2, Homo sapiens, UniProt P54646) | enzyme activity |  | 10 µM | 1%
CC[C@H](C)[C@H](NC(=O)[C@H](CCC(N)=O)NC(=O)[C@@H](NC(=O)[C@H](CCSC)NC(=O)[C@H](CCCCN)NC(=O)[C@H](CO)NC(=O)[C@@H](NC(=O)[C@H](CCSC)NC(=O)[C@H](CC(C)C)NC(=O)[C@H](CC(N)=O)NC(=O)[C@@H](NC(=O)[C@@H](NC(=O)[C@H](CO)NC(=O)[C@H](CC(C)C)NC(=O)[C@H](C)NC(=O)[C@H](CCCNC(=N)N)NC(=O)[C@H](CCC(=O)O)NC(=O)[C@H](Cc1ccc(O)cc1)NC(=O)[C@H](Cc1ccccc1)NC(=O)[C@H](C)NC(=O)[C@H](CC(N)=O)NC(=O)[C@@H](N)CCCCN)[C@@H](C)CC)[C@@H](C)CC)[C@@H](C)O)C(C)C)C(=O)N[C@@H](CC(N)=O)C(=O)N[C@H](C(=O)O)C(C)C | MAPK3 | enzyme activity, radiometric |  | 500 µM, 20 min | 46%
NC/C(=C\F)COc1cccc(Cn2c(=S)[nH]c(=O)c3[nH]cnc32)c1 | Thyroid peroxidase (Homo sapiens, UniProt P07202) | enzyme activity |  | 1.875 µM | 68.1%
COc1cc(-c2cncc3c2CN(C)Cc2cc(N4CCNCC4)ccc2-3)cc(OC)c1OC | Serine/threonine-protein kinase Nek2 (NEK2, Homo sapiens, UniProt P51955) | enzyme activity |  | 1 µM | 92%
Cc1nn(CC(F)(F)F)cc1Nc1nccc(NCCc2cnc[nH]2)n1 | AAK1 | enzyme activity, radiometric |  | 1 µM | 82%
COc1ccc(Cl)cc1-c1cc(=O)[nH]c(=S)n1CC(N)=O | MPO | enzyme activity |  | 1.25 µM | 44.6%
COc1cccc(-c2ccc(/C(C)=N/O)c(O)c2Cl)c1 | SLC2A1 | transporter uptake, radiometric | NCI-H1299 | 30 µM | 67%
O=C(Cn1c(=O)n(CC2CCCO2)c(=O)c2ccc(C(=O)NCCc3ccccc3)cc21)Nc1ccc(F)c(Cl)c1 (stereo not shown) | RET | enzyme activity, radiometric |  | 10 µM | 85.3%
CNc1ncc2c(/C=C/C(=O)N3CCC(OC)CC3)nn(Cc3cccc(C(F)(F)F)c3)c2n1 | Serine/threonine-protein kinase Nek4 (NEK4, Homo sapiens, UniProt P51957) | enzyme activity, radiometric |  | 1 µM | 95%
COc1ccc(-n2nc(C(=O)Nc3ccc4c(c3)OCO4)c(=O)cc2OC)cc1OC | RET | enzyme activity, radiometric |  | 10 µM | 78.9%
CC(C)OCCn1c(=S)[nH]c(=O)c2[nH]ccc21 | MPO | enzyme activity |  | 0.45 µM | 43.7%
COc1cc(NC(=O)Nc2ccc(C)c(F)c2)cc2sc(NC(=O)c3ccccc3)nc12 | RET | enzyme activity, radiometric |  | 10 µM | 15.7%
N=C(N)c1ccc(-c2ccc(-c3ccc(C(=N)N)c(F)c3)o2)cc1F | Protein arginine N-methyltransferase 5 (PRMT5, Homo sapiens, UniProt O14744) | enzyme activity, radiometric |  | 20 µM | 101%
COc1cccc(NC(=O)Nc2c(-c3ccc(Cl)cc3)nn(-c3ccc(F)cc3)c2N)c1 | RET | enzyme activity, radiometric |  | 10 µM | 96.3%
CC[C@H](C)[C@H](NC(=O)[C@H](CCC(N)=O)NC(=O)[C@H](CC(C)C)NC(=O)[C@H](CCSC)NC(=O)[C@H](CCCCN)NC(=O)[C@H](CO)NC(=O)[C@H](CO)NC(=O)[C@H](CCSC)NC(=O)[C@H](CC(C)C)NC(=O)[C@H](CC(N)=O)NC(=O)[C@@H](NC(=O)[C@@H](NC(=O)[C@H](CO)NC(=O)[C@H](CC(C)C)NC(=O)[C@H](CS)NC(=O)[C@H](CCCNC(=N)N)NC(=O)[C@H](CC(=O)O)NC(=O)[C@H](Cc1c[nH]c2ccccc12)NC(=O)[C@H](Cc1ccccc1)NC(=O)[C@H](C)NC(=O)[C@H](CCC(=O)O)NC(=O)[C@@H](N)CCCCN)C(C)C)[C@@H](C)CC)C(=O)N[C@@H](CC(N)=O)C(=O)N[C@@H](C)C(=O)O | MAPK3 | enzyme activity, radiometric |  | 10 µM, 20 min | 100%
NC1=Nc2nc3ccccc3n2C(c2c[nH]nc2-c2cccc(O)c2)N1 (stereo not shown) | RET | enzyme activity, radiometric |  | 0.1 µM | 117%
C/C(=N\O)c1ccc(-c2ccc(C(F)(F)F)cc2)c(Cl)c1O | SLC2A1 | transporter uptake, radiometric | NCI-H1299 | 30 µM | 100%
COc1ccc(Cl)cc1NC(=O)Nc1ccc2nc(NC(=O)c3ccccc3)sc2c1 | RET | enzyme activity, radiometric |  | 10 µM | 103%
COc1ccc(-c2ccc(/C(C)=N/O)c(O)c2Cl)cc1 | SLC2A1 | transporter uptake | NCI-H1299 | 30 µM | 85%
COc1cc(NC(=O)Nc2cc(C)c3nc(NC(=O)c4ccccc4)sc3c2)cc(OC)c1 | RET | enzyme activity, radiometric |  | 10 µM | 88.3%
Cc1cc([C@@H](C)Nc2ccccc2C(=O)O)c2nc(N3CCC(F)(F)CC3)c(C#N)c(=O)n2c1 | Phosphatidylinositol 4-kinase type 2-alpha (PI4K2A, Homo sapiens, UniProt Q9BTU6) | enzyme activity, ADP detection |  | 10 µM | 98%

A few entries again:
Compound | target | assay | test system | conditions | remaining activity
C/C(=N\O)c1ccc(-c2ccc(C(F)(F)F)cc2)c(Cl)c1O | SLC2A1 | transporter uptake, radiometric | NCI-H1299 | 30 µM | 100%
O=C(Cn1c(=O)n(CC2CCCO2)c(=O)c2ccc(C(=O)NCCc3ccccc3)cc21)Nc1ccc(F)c(Cl)c1 (stereo not shown) | RET | enzyme activity, radiometric |  | 10 µM | 85.3%
Cc1nn(CC(F)(F)F)cc1Nc1nccc(NCCc2cnc[nH]2)n1 | AAK1 | enzyme activity, radiometric |  | 1 µM | 82%
COc1ccc(-c2ccc(/C(C)=N/O)c(O)c2Cl)cc1 | SLC2A1 | transporter uptake | NCI-H1299 | 30 µM | 85%
